Earlier results, collected from citations in different studies.
Compare with care: the assays were run in different laboratories. ± marks the error that the study gave.

The chains behind the UniProt entries cited, without tags or fusion partners. Residues count along the entry.
UniProt Q86X55, whole entry: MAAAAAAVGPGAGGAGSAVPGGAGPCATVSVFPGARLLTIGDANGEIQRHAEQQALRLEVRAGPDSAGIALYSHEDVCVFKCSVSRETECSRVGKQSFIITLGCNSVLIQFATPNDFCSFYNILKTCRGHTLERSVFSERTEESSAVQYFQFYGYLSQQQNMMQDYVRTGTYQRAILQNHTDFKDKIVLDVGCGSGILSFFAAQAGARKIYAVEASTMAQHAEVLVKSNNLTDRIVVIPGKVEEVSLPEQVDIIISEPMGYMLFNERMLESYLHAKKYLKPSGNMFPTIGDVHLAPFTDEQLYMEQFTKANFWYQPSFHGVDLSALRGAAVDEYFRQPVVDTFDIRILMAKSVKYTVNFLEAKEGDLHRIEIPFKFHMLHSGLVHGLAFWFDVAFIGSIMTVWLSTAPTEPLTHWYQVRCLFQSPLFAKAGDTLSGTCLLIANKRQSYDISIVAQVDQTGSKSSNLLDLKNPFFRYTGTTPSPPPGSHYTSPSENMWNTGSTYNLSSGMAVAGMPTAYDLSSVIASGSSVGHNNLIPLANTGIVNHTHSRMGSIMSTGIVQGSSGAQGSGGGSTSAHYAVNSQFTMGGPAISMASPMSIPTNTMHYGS
UniProt P33533, whole entry: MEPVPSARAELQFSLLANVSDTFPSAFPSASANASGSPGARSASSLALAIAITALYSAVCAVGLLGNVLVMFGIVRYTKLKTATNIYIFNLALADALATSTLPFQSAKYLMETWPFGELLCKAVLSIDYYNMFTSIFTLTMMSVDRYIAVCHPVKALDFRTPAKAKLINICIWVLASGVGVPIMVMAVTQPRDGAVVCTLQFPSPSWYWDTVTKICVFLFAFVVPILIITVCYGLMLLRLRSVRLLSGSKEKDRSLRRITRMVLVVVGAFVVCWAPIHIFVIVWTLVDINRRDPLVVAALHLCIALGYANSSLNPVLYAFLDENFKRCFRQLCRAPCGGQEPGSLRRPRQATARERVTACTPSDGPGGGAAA
UniProt Q96RJ0, whole entry: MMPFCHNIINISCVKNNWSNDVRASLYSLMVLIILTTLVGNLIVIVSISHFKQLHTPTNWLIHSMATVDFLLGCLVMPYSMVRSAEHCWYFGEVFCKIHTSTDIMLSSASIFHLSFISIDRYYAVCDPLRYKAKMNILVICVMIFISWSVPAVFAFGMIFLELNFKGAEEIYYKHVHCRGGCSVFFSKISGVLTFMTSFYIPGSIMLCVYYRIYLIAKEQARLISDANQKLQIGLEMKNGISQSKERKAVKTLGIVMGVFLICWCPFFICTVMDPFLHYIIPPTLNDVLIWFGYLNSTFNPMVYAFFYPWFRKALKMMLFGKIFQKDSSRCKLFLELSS
UniProt P49720, whole entry, looked up: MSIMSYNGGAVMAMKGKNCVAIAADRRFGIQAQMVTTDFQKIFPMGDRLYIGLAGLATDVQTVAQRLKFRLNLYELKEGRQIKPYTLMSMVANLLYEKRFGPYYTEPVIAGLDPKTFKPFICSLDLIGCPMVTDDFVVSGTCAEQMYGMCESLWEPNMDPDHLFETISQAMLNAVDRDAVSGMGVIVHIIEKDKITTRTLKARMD
UniProt Q99436, whole entry, looked up: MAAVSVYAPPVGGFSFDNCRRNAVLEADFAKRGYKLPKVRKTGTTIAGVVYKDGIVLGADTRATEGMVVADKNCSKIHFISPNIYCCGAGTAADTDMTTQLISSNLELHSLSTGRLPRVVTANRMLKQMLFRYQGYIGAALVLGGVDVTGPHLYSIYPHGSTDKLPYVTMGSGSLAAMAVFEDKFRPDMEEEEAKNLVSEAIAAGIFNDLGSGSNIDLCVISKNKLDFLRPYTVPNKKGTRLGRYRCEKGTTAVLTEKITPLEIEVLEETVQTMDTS
UniProt Q8IVW8, 103-549 limits assumed: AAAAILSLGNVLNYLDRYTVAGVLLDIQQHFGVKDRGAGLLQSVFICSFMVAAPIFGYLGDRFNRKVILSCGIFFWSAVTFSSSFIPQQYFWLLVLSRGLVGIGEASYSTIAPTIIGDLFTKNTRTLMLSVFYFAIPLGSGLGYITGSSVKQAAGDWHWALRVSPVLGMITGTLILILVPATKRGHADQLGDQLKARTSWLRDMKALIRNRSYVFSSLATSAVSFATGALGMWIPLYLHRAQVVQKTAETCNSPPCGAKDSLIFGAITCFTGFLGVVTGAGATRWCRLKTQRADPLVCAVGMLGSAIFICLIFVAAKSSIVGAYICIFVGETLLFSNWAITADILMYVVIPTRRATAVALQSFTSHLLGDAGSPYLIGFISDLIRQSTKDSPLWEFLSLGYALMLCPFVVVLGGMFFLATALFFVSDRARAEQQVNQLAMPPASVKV
UniProt Q9UUB1, whole entry: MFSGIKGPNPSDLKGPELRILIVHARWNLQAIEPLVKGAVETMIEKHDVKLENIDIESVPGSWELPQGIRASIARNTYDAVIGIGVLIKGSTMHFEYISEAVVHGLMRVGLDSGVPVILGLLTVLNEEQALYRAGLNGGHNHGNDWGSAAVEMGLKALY
UniProt Q8VSX5, 1-224: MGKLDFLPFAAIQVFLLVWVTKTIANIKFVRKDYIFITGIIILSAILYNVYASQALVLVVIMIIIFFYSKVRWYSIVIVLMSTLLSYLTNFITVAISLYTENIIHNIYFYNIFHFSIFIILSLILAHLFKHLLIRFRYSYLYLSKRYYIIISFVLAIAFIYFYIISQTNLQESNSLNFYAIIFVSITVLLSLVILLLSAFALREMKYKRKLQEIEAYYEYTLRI
UniProt P32300, whole entry: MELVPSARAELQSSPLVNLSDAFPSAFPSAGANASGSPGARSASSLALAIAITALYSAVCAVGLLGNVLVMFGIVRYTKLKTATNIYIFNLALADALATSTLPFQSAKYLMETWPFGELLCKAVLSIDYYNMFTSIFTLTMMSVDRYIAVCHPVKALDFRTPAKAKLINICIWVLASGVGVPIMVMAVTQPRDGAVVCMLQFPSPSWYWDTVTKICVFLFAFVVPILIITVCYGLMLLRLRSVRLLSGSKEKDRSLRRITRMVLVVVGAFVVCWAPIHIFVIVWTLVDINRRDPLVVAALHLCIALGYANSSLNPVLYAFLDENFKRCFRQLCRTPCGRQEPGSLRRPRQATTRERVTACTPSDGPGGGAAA
UniProt P42866, whole entry: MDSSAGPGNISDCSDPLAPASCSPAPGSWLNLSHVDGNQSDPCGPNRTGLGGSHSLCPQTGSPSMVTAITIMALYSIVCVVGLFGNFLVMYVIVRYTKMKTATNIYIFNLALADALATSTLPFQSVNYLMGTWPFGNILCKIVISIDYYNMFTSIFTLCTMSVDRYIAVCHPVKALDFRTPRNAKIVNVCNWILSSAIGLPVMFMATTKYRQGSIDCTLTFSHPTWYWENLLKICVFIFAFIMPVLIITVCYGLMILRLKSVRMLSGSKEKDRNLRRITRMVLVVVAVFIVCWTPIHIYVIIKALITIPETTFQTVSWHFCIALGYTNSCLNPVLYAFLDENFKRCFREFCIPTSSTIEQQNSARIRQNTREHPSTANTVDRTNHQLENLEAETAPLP
UniProt P41143, whole entry: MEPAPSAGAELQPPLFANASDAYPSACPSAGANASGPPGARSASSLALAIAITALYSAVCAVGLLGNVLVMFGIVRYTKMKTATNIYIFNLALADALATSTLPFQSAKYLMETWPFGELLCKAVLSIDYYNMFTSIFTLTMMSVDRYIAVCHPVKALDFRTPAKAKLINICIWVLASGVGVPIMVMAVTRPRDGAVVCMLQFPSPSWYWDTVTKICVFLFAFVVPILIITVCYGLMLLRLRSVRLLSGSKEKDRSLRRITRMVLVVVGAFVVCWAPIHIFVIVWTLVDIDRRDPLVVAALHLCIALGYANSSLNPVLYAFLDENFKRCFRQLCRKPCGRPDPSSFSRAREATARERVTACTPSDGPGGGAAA
UniProt Q00987, whole entry L33E, looked up: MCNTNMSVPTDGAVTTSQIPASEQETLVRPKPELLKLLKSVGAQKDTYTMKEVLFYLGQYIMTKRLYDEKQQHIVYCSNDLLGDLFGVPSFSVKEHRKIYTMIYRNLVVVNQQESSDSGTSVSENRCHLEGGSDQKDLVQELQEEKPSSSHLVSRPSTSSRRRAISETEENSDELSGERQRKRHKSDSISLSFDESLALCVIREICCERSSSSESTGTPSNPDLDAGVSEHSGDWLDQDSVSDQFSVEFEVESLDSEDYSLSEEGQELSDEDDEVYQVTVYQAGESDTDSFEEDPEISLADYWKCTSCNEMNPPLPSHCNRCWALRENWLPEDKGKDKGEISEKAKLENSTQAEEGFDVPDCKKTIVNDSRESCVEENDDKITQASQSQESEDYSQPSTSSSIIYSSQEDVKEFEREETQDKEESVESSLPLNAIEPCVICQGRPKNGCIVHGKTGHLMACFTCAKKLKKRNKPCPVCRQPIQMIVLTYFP

CSCCC(NC(=O)C(NC(=O)C(CO)NC(=O)C(Cc1ccccc1)NC(=O)C1CCCN1C(=O)C1CCCN1C(=O)C(CCCNC(=N)NCCCC1OC(n2cnc3c(N)ncnc32)C(O)C1O)NC(=O)C1CCCN1C(=O)C(C)NC(=O)C(C)NC(=O)C1CCCN1C(C)=O)C(C)O)C(=O)O (stereo not drawn)  IC50 (CARM1 (Homo sapiens, UniProt Q86X55); enzyme activity, inhibitor): 0.09 µM
Cc1cc(O)cc(C)c1C[C@@H]1NC[C@H](CCCCN)NC(=O)[C@H](Cc2ccccc2)NC(=O)[C@@H](CCCNC(=N)N)NC1=O  Ki (Oprd1 (Rattus norvegicus, UniProt P33533)): 0.422 ± 0.107 µM
N[C@@H](Cc1ccc(O)cc1)C(=O)N1Cc2ccccc2C[C@H]1CN[C@@H](CC1CCCCC1)C(=O)N[C@@H](Cc1ccccc1)C(=O)O  Ki (Oprd1 (Rattus norvegicus, UniProt P33533)): 0.000259 ± 4.7e-05 µM
N#Cc1c(C(F)(F)F)cc(-c2ccncc2)nc1SCC(=O)Nc1ncco1  IC50 (TAAR1 (Homo sapiens, UniProt Q96RJ0); antagonist): 9 µM
CC(=O)N1CCC[C@@H]1C(=O)N[C@@H](C)C(=O)N[C@@H](Cc1ccccc1)B(O)O  IC50 (Proteasome subunit beta type-3/PSMB7, trypsin-like site (Homo sapiens, UniProt P49720+Q99436); β2c activity, inhibitor; with: Ac-WLR-AMC substrate): > 10 µM
CCCCCCCCCCc1ccc(-c2noc(CCCN)n2)cc1  IC50 (SPNS2 (Homo sapiens, UniProt Q8IVW8); S1P export, inhibitor; with: NBD-S1P): ~6 µM
c1ccc2c(c1)ccc[n+]2CCCCCCCCCC[n+]1cccc2ccccc21  LD50 (rat; intramuscular, 24 h): 45.3 mg/kg
CCC(=O)Nc1c(NC[C@H](O)[C@H](O)[C@H](O)CO)[nH]c(=O)[nH]c1=O  Ki (6,7-dimethyl-8-ribityllumazine synthase (rib4, Schizosaccharomyces pombe, UniProt Q9UUB1); inhibitor; pH 7.0): 11 ± 1 µM
C[C@H](N)C(=O)N[C@@H](CO)C(=O)N[C@@H](C)C(=O)N[C@H]1CSC(=O)[C@H](Cc2ccccc2)NC(=O)[C@H](Cc2ccc(O)cc2)NC(=O)[C@H](C)NC(=O)[C@H](C)NC1=O  IC50 (Accessory gene regulator protein C (Staphylococcus epidermidis, UniProt Q8VSX5); antagonist, reporter strain): 0.00036 µM
NCCNCCSc1ccccc1  long-term stability (urine; 100 µg/mL, 30 days, -20 °C): 93.7 ± 1.5 % remaining
C=CCN1CC[C@]23c4c5ccc(O)c4O[C@H]2[C@H](NC(=O)c2cccc(I)c2)CC[C@@]3(O)[C@H]1C5  Ki (Oprd1 (Mus musculus, UniProt P32300)): 0.0026 ± 0.00018 µM
O=C(N[C@@H]1CC[C@@]2(O)[C@H]3Cc4ccc(O)c5c4[C@@]2(CCN3CC2CC2)[C@H]1O5)c1ccncc1F  selectivity ratio (opioid receptors; binding; reference: Ki DOR over Ki MOR): 436 fold
COc1cc(C(=O)N[C@@H]2CC[C@@]3(O)[C@H]4Cc5ccc(O)c6c5[C@@]3(CCN4CC3CC3)[C@H]2O6)ccn1  Ki (Oprm1 (Mus musculus, UniProt P42866); radioligand binding; CHO; with: [3H]naloxone): 0.0006 ± 0.00023 µM
N[C@@H](Cc1ccc(C(=O)NCCc2ccc(-c3ccccc3)cc2)cc1)C(=O)N1Cc2ccccc2C[C@H]1C(=O)O  Ki (Oprd1 (Rattus norvegicus, UniProt P33533); radioligand binding; rat brain membranes; with: [3H]DSLET): 0.000646 ± 8.8e-05 µM
COc1ccc(CNC(=O)c2ccccc2CNCc2ccc3c(c2C(=O)O)OCO3)cc1  Kd (HIV-1 integrase core domain Y131D; binding, surface plasmon resonance): > 2000 µM
Ic1ccc(CSCn2ccnc2)cc1  Ki (OPRD1 (Homo sapiens, UniProt P41143)): > 10 µM
c1ccc2c[n+](CCCCCCCC[n+]3ccc4ccccc4c3)ccc2c1  IC50 (ACHN; cytotoxicity, MTT): 1050 µM
CC(C)Oc1cc(NC(=O)[C@@H](Cc2ccccc2)NC(=O)c2ccc(N)c(OCc3ccccc3)c2)ccc1C(=O)NCC(=O)O  IC50 (E3 ubiquitin-protein ligase Mdm2, with p53 (MDM2, Homo sapiens, UniProt Q00987, L33E); p53-MDM2 interaction, inhibitor, fluorescence anisotropy competition): 9.2 µM
